{"data": "Measured values collected from several papers", "IDE": "Insulin-degrading enzyme (IDE, Homo sapiens, UniProt P14735)", "Cereblon/Ikaros": "Cereblon/Ikaros (Homo sapiens, UniProt Q13422+Q96SW2)", "USP33 ZnF-UBD domain": "Ubiquitin carboxyl-terminal hydrolase 33, ZnF-UBD domain (USP33, Homo sapiens, UniProt Q8TEY7)", "note": "± gives the spread as reported.", "sequence of UniProt Q13422 (whole entry, looked up)": "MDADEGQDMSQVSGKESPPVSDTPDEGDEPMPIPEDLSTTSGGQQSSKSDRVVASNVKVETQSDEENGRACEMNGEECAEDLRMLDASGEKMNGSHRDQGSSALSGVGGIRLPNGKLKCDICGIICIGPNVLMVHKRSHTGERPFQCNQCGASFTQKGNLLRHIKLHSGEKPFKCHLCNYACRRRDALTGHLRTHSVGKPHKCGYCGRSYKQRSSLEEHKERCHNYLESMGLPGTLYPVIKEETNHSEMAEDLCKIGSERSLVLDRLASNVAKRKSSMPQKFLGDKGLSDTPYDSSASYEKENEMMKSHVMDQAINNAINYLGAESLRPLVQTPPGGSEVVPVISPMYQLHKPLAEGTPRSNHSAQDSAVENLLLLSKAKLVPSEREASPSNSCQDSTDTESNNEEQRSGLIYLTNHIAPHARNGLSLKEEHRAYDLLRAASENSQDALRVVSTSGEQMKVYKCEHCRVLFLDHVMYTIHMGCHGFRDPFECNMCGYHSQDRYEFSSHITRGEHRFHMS", "sequence of UniProt Q96SW2 (whole entry, looked up)": "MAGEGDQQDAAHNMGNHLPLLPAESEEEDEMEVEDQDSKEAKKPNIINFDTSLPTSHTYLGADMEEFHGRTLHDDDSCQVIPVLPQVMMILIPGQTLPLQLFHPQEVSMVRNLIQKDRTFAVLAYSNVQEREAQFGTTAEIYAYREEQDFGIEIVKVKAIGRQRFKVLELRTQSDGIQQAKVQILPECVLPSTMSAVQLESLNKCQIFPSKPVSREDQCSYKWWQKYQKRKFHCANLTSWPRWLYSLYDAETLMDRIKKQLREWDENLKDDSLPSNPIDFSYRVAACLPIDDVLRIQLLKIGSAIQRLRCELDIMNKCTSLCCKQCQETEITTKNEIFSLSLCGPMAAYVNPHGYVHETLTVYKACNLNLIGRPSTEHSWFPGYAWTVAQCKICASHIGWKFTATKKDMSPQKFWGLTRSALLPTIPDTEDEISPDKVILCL", "sequence of UniProt Q8TEY7 (whole entry, looked up)": "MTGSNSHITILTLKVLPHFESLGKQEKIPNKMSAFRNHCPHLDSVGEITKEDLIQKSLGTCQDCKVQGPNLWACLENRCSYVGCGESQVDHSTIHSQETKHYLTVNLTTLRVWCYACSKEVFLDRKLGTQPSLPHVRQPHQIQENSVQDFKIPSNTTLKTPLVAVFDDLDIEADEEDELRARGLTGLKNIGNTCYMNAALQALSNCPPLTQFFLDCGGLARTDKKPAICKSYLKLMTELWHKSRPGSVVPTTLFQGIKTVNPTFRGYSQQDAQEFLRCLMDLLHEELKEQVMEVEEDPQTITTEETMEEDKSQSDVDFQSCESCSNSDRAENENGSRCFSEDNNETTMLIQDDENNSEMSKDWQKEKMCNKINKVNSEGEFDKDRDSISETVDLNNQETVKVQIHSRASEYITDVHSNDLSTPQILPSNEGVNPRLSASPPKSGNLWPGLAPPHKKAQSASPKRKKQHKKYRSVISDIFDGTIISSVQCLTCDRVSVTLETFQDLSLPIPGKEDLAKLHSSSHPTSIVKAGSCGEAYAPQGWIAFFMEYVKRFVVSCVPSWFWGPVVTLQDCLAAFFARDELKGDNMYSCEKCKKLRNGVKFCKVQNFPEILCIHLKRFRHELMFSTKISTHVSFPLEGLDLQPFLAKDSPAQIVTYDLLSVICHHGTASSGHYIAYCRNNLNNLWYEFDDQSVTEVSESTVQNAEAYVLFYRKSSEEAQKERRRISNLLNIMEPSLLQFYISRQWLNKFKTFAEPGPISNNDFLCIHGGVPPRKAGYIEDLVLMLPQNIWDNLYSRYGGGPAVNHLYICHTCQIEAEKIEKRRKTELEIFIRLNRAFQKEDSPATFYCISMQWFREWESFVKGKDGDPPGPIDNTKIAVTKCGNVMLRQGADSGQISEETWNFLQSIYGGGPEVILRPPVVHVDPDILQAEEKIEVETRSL"}
{"SMILES": "NS(=O)(=O)c1nnc(NC(=O)CCCCC2CCCCC2)s1", "target or system": "Enterococcus faecium γ-carbonic anhydrase", "assay": "CO2 hydration, inhibitor, stopped-flow kinetics", "measurement": "Ki", "result": "0.587 µM"}
{"SMILES": "COc1cccc(-c2ccc([C@@H]3[C@@H](CO)N4CCCCN(S(=O)(=O)c5ccccc5C)C[C@@H]34)cc2)c1", "target or system": "IDE", "assay": "enzyme activity, inhibitor, fluorescence kinetic", "setting": "added: Mca-RPPGFSAFK(Dnp)-OH substrate", "measurement": "EC50", "result": "0.49 µM"}
{"SMILES": "CC1(CC(=O)Nc2nnc(S(N)(=O)=O)s2)CCCCC1", "target or system": "Enterococcus faecium γ-carbonic anhydrase", "assay": "CO2 hydration, inhibitor, stopped-flow kinetics", "measurement": "Ki", "result": "0.398 µM"}
{"SMILES": "Cc1cccc(C(=O)Nc2ccc3c(c2)CN(C2CCC(=O)NC2=O)C3=O)c1 (stereo not drawn)", "target or system": "Cereblon/Ikaros", "assay": "degrader, live-cell HiBiT kinetic", "test system": "Jurkat Ikaros-HiBiT LgBiT", "measurement": "DC50", "result": "> 10 µM"}
{"SMILES": "COc1ccccc1-c1ccc([C@@H]2[C@@H](C#N)N(C(=O)c3cccnc3)[C@@H]2CO)cc1", "target or system": "IDE", "assay": "enzyme activity, inhibitor, fluorogenic kinetic", "setting": "added: Mca-RPPGFSAFK(Dnp)-OH substrate", "measurement": "EC50", "result": "1.2 µM"}
{"SMILES": "O=C(O)Cc1cccnc1", "target or system": "USP33 ZnF-UBD domain", "measurement": "Kd", "result": "115 µM"}
{"SMILES": "CC(C)NCC(O)c1ccc(O)c(O)c1 (stereo not drawn)", "test system": "ventricular cardiomyocytes, C57BL/6 mouse", "setting": "dose not given, 0.004 s", "measurement": "sarcomere length", "result": "1.72 µm"}
{"SMILES": "O=C(O)Cn1cnc2c(oc3ccccc32)c1=O", "target or system": "USP33 ZnF-UBD domain", "measurement": "Kd", "result": "> 1000 µM"}
{"SMILES": "NC[C@@H]1O[C@H](O[C@H]2[C@@H](O)[C@H](O[C@@H]3[C@@H](O)[C@H](N)C[C@H](N)[C@H]3O[C@H]3O[C@H](CN)[C@@H](O)[C@H](O)[C@H]3N)O[C@@H]2CO)[C@H](N)[C@@H](O)[C@@H]1O", "target or system": "(CUG)10 RNA", "assay": "SPR", "measurement": "Kd", "result": "0.346 µM"}
{"SMILES": "CCC(C)(NCCc1ccc(C(F)(F)F)cc1)c1cccc(NC2=CC(=O)N(C3CCC(=O)NC3=O)C2=O)c1 (stereo not drawn)", "target or system": "Cereblon/Ikaros", "assay": "degrader", "measurement": "DC50", "result": "0.04 ± 0.006 µM"}
{"SMILES": "Cc1cccc(-c2ccc([C@@H]3[C@@H](CF)N4CCCCN(S(=O)(=O)c5ccccc5C(F)(F)F)C[C@@H]34)cc2)c1C", "target or system": "IDE", "assay": "enzyme activity, inhibitor, fluorescence kinetic", "setting": "added: Mca-RPPGFSAFK(Dnp)-OH substrate", "measurement": "EC50", "result": "0.024 µM"}
{"SMILES": "CCC(C)(NCCc1ccc(Cl)c(C(F)(F)F)c1)c1cccc(NC2=CC(=O)N(C3CCC(=O)NC3=O)C2=O)c1 (stereo not drawn)", "target or system": "Cereblon/Ikaros", "assay": "degrader", "test system": "human cells", "measurement": "DC50", "result": "0.04 ± 0.005 µM"}
{"SMILES": "Cc1cccc(-c2ccc([C@@H]3[C@@H](CO)N4C(=O)CN(C(=O)NC5CCCCC5)C[C@@H]34)cc2)c1", "target or system": "IDE", "assay": "enzyme activity, inhibitor, fluorogenic kinetic", "setting": "added: Mca-RPPGFSAFK(Dnp)-OH substrate", "measurement": "EC50", "result": "0.67 µM"}
{"SMILES": "CCC(C)(NCCc1cccc(Cl)c1)c1cccc(NC2=CC(=O)N(C3CCC(=O)NC3=O)C2=O)c1 (stereo not drawn)", "target or system": "Cereblon/Ikaros", "assay": "degrader, HiBiT luminescence, item: endogenous HiBiT-tagged protein", "measurement": "DC50", "result": "0.09 ± 0.016 µM"}
{"SMILES": "CC(=O)Nc1ccc(NC(=S)NC(=O)c2ccc(C(C)(C)C)cc2)cc1", "target or system": "HBL-1", "setting": "0.5 µM, 120 h", "measurement": "viability", "result": "119%"}
{"SMILES": "CC1(C(=O)Nc2nnc(S(N)(=O)=O)s2)CCC1", "target or system": "Enterococcus faecium γ-carbonic anhydrase", "assay": "CO2 hydration, inhibitor, stopped-flow kinetics", "measurement": "Ki", "result": "0.348 µM"}
{"SMILES": "Cc1ccc(C(=O)Nc2ccc3c(c2)CN(C2CCC(=O)NC2=O)C3=O)cc1 (stereo not drawn)", "target or system": "Cereblon/Ikaros", "assay": "degrader, live-cell HiBiT kinetic", "test system": "Jurkat Ikaros-HiBiT LgBiT", "measurement": "DC50", "result": "> 10 µM"}
{"SMILES": "COc1cccc(C#Cc2ccc([C@@H]3[C@H](CO)N4C(=O)CN(C(C)=O)C[C@@H]34)cc2)c1", "target or system": "IDE", "assay": "enzyme activity, inhibitor, fluorogenic kinetic", "setting": "added: Mca-RPPGFSAFK(Dnp)-OH substrate", "measurement": "EC50", "result": "3.7 µM"}
{"SMILES": "O=C(Nc1ccc2c(O)cc(S(=O)(=O)O)cc2c1)Nc1ccc2c(O)cc(S(=O)(=O)O)cc2c1", "target or system": "HBL-1", "setting": "0.1 µM, 120 h", "measurement": "viability", "result": "119%"}
{"SMILES": "COc1ccccc1-c1ccc([C@H]2[C@@H](CO)N3CCCCN(C(=O)c4cccnc4)C[C@H]23)cc1", "target or system": "IDE", "assay": "enzyme activity, inhibitor, fluorogenic kinetic", "setting": "added: Mca-RPPGFSAFK(Dnp)-OH substrate", "measurement": "EC50", "result": "13.2 µM"}
{"SMILES": "CC(C)(C)OCC(=O)Nc1nnc(S(N)(=O)=O)s1", "target or system": "Enterococcus faecium γ-carbonic anhydrase", "assay": "CO2 hydration, inhibitor, stopped-flow kinetics", "measurement": "Ki", "result": "0.223 µM"}
{"note": "A few entries again:"}
{"SMILES": "CC(=O)Nc1ccc(NC(=S)NC(=O)c2ccc(C(C)(C)C)cc2)cc1", "target or system": "HBL-1", "setting": "0.5 µM, 120 h", "measurement": "viability", "result": "119%"}
{"SMILES": "CC1(C(=O)Nc2nnc(S(N)(=O)=O)s2)CCC1", "target or system": "Enterococcus faecium γ-carbonic anhydrase", "assay": "CO2 hydration, inhibitor, stopped-flow kinetics", "measurement": "Ki", "result": "0.348 µM"}
{"SMILES": "Cc1ccc(C(=O)Nc2ccc3c(c2)CN(C2CCC(=O)NC2=O)C3=O)cc1 (stereo not drawn)", "target or system": "Cereblon/Ikaros", "assay": "degrader, live-cell HiBiT kinetic", "test system": "Jurkat Ikaros-HiBiT LgBiT", "measurement": "DC50", "result": "> 10 µM"}
